Assay results collected from several papers.
“And” joins repeats or separate records; there may be more than shown. ± gives the spread as reported.

For `CCOc1cc(/C=N/NC(=S)Nc2cccc(Cl)c2)ccc1OC(=O)CN1C(=O)CSC1=O`, the MIC was 31.6 µM (Mycobacterium tuberculosis; Alamar blue; 192).
`CCc1ccn2c(C(=O)N(C)C)c(C)nc2c1` has an inhibition zone of 0 mm (Mycolicibacterium vaccae; microbial growth; IMET10670; 2 mM).
`CCC(CO)NCCNC(CC)CO.CCOc1cc(C=NNC(=O)c2ccccn2)ccc1OC(=O)CN1C(=O)CSC1=O` gave an FICI of 2 (Mycobacterium tuberculosis; two-drug checkerboard; H37Rv; concentration not given, unit not given; lower means more synergy).
`Cc1ccc(C[C@H]2CON=C(c3cc(C)nnc3Oc3cccc(Cl)c3F)N2)c(Cl)c1` gave an EC50 of 0.5 ± 0.3 nM (Botrytis cinerea; fungal growth, inhibitor; B05.10 wild type; 168 h).
`Cc1cc(Oc2nc(N3CC[C@@H](c4ccncc4)C3)ncc2F)[nH]n1` has a normalised growth of 90% and 95% (Mycobacterium tuberculosis; OD; H37Rv PurF CRISPRi knockdown; 0.000122 µM, together with: anhydrotetracycline low).
The IC50 of `COc1ccc2nc(C)cc(OCC(=O)Nc3ccccc3OC)c2c1` is reported as 1010 nM (Mycobacterium tuberculosis; bacterial growth, inhibitor; mmpL3-TetON).
`NNC(=O)c1ccncc1.O=C(CN1C(=O)CSC1=O)Oc1ccc(C=NNC(=S)Nc2cccc(Cl)c2)cc1Cl` has an FICI of 1.5 (Mycobacterium tuberculosis; two-drug checkerboard; H37Rv; concentration not given, unit not given; lower means more synergy).
For `CCc1ccn2c(C(=O)NCc3ccc(C)cc3)c(C)nc2c1`, the inhibition zone was 20 mm (Mycolicibacterium vaccae; microbial growth; IMET10670; 2 mM).
With `Clc1ccc(CC2CON=C(c3cc(Cl)nnc3Oc3cccc(C4CC4)c3)N2)c(Cl)c1` (stereo not shown) the EC50 was 0.5 ± 0.1 nM (Botrytis cinerea; fungal growth, inhibitor; B05.10 wild type; 168 h).
The FICI of `CCC(CO)NCCNC(CC)CO.COC(=O)C=C1SC(=NN=Cc2ccc(OC(=O)CN3C(=O)CSC3=O)cc2)NC1=O` is reported as 2 (Mycobacterium tuberculosis; two-drug checkerboard; H37Rv; concentration not given, unit not given; lower means more synergy).
`Cc1ccccc1CN1CCC(O)(c2ccc(Cl)c(C(F)(F)F)c2)CC1` gave an IC50 of 360 nM (Mycobacterium tuberculosis; bacterial growth).
For `CCc1ccn2c(C(=O)N(C)Cc3ccccc3)c(C)nc2c1`, the inhibition zone was 22 mm (Mycolicibacterium vaccae; microbial growth; IMET10670; 2 mM).
With `Cc1occc1C(=O)Nc1nc(-c2ccccn2)nc2ccsc12` the IC50 was 440 nM (Mycobacterium tuberculosis; bacterial growth, inhibitor; mmpL3-TetON).
`CN[C@@H]1[C@H](O)[C@H](NC)[C@H]2O[C@]3(O)[C@H](O[C@@H]2[C@H]1O)O[C@H](C)C[C@H]3NC(=O)Cc1ccccn1` gave an MIC of 1.6 to 3.1 µg/mL (Mycobacterium marinum; microbial growth; ATCC927).
`O=C(NC12CC3CC(CC(C3)C1)C2)c1cc2cc(Cl)ccc2[nH]1` gave an IC50 of 20 nM (Mycobacterium tuberculosis; bacterial growth, inhibitor; mmpL3-TetON).
`CC(C)CC(C(=O)N1CC2(CC1C#N)C(=O)Nc1ccccc12)N(C)C(=O)c1cc2c(F)cc(F)c(F)c2[nH]1` (stereo not shown) gave an inhibition of 90.1% (Human coronavirus 229E; cytopathic effect; MRC5; 4.686 nM).
The IC50 of `Cc1cc(NCCc2ccccc2)nc(/N=C(\N)Nc2ccc(Cl)cc2)n1` is reported as 280 nM (Mycobacterium tuberculosis; bacterial growth, inhibitor; mmpL3-TetON).
With `Cc1ccc(NS(=O)(=O)c2c(C(=O)N3CCCCCC3)c(C)n(C)c2C)c(Cl)c1` the infection was 94% and 96.8% and 102% (Human alphaherpesvirus 1; viral infection; HaCaT; 0.1372 µM, 36 h; reference: untreated).
`O=C(C=Cc1cccs1)N1CCN(Cc2ccc3c(c2)OCO3)CC1` has an IC50 of 1690 nM (Mycobacterium tuberculosis; microbial growth).
With `CN(C(=O)[C@H](Cc1ccccc1)NC(=O)Cc1c[nH]c2ccc(O)cc12)c1ccccc1` the EC50 was 57 ± 5 nM (HIV-1; viral infection).
`COc1cc(CN2CCC3(C=Cc4ccccc43)CC2)cc2c1OCO2` gave an IC50 of 1310 nM (Mycobacterium tuberculosis; microbial growth).
The EC50 of `Cc1c(CC(=O)N[C@@H](Cc2ccccc2)C(=O)N(C)c2ccccc2)c2ccccc2n1C(C)C` is reported as 390 ± 40 nM (HIV-1; viral infection).

Some of these lines once more:
For `CCc1ccn2c(C(=O)N(C)Cc3ccccc3)c(C)nc2c1`, the inhibition zone was 22 mm (Mycolicibacterium vaccae; microbial growth; IMET10670; 2 mM).
The IC50 of `Cc1cc(NCCc2ccccc2)nc(/N=C(\N)Nc2ccc(Cl)cc2)n1` is reported as 280 nM (Mycobacterium tuberculosis; bacterial growth, inhibitor; mmpL3-TetON).
